Assay results collected from several papers.

| SMILES | assay | system | conditions | AUC(0-last) |
| --- | --- | --- | --- | --- |
| N#CCNC(=O)c1ccc(-c2ccnc(Nc3ccc(N4CCOCC4=O)cc3)n2)cc1 |  | healthy human volunteers, plasma | 200 mg momelotinib, day 1, fasted, momelotinib alone | 3910 ng·h/mL |
| C[C@@H](N)c1cc(Cl)ccc1Cn1c(=S)[nH]c(=O)c2[nH]ccc21 |  | human, both sexes, severe renal impairment, plasma | oral, 2.5 mg single dose, geometric mean | 0.558 µM·h |
| Cn1nc2c(=O)n(C3CC3)cnc2c1[C@](O)(c1cnc(C(F)(F)F)c(Cl)c1)C(F)(F)F |  | infected humanized SCID mice, blood | 3 mg/kg daily, 6 days | 149 µM·h |
| CC(C)c1nc(N(C)S(C)(=O)=O)nc(-c2ccc(F)cc2)c1/C=C/[C@@H](O)C[C@@H](O)CC(=O)O |  | human, plasma | oral, 10 mg, with: vepdegestrant 200 mg | 34.7 ng·h/mL |
| CN(C)C(=O)c1cc2cnc(Nc3ccc(N4CCNCC4)cn3)nc2n1C1CCCC1 |  | human, normal renal function, plasma | oral, 400 mg, single dose, geometric mean | 4030 ng·h/mL |
| COc1ncc(-c2nc3c(n2C(C)C)[C@H](c2ccc(Cl)cc2)N(c2cc(Cl)cn(C)c2=O)C3=O)c(OC)n1 | LC-MS/MS | human, plasma | oral, 15 mg, cycle 1 day 14, low-dose arm | 689 ng·h/mL |
| CCOc1c([C@H](C)n2nc(C)c3c(N)ncnc32)cc(Cl)c(F)c1[C@@H]1CNC(=O)C1 |  | human patients | oral, 20 mg, day 1, monotherapy | 6.79 µM·h |
| O=C(c1nc2n(n1)[C@H](c1ccccc1)C[C@@H]2F)C1CC1 | geometric LS mean | human, high-fat meal, plasma | oral, 75 mg single dose | 13000 ng·h/mL |
| CC(C)NC(=O)COc1cccc(-c2nc(Nc3ccc4[nH]ncc4c3)c3ccccc3n2)c1 |  | human male, plasma | oral, 200 mg, day 6, fed, alone, geometric mean | 9710 ng·h/mL |
| Cc1noc(C)c1-c1cc(C(O)(c2ccccn2)c2ccccn2)c2nc(C3CC3)[nH]c2c1 |  | human male fasted, plasma | oral, 3 mg once daily, cycle 1 day 8 | 3740 ng·h/mL |
| CC(F)(F)c1cc(F)ccc1-c1sc2cc(O)ccc2c1Oc1ccc(/C=C/C(=O)O)cc1 |  | human patients, serum | oral, 200 mg twice daily, cycle 1 day 28, without regard to food, mean | 4890 ng·h/mL |
| Cn1c(=O)oc2ccc(-c3ccc(C[C@@H](C#N)NC(=O)[C@@H]4CNCCCO4)cc3)cc21 |  | human, normal renal function, plasma | oral, 25 mg single dose, mean | 3480 ng·h/mL |
| CC(C)n1nc(-c2ccc3oc(N)nc3c2)c2c(N)ncnc21 |  | human, plasma | oral, 3 mg once daily, cycle 1 day 1 | 189 ng·h/mL |
| Cc1cc(Nc2cc3ncccc3c(N[C@@H]3C[C@H]4CC[C@@H](C3)N4CCC#N)n2)n[nH]1 |  | human, plasma | 30 mg single dose, mean | 4.78 ng·h/mL |
